Published values of several laboratories.
A part holds a random share of what one study measured. Positions count from the first letter of the parent shown.

Block 1 — technique: aptamer microarray, sandwich; form: DNA with 2'F-ANA; medium: in vitro; tested at: 200 nM; with: Cy3 exosite-II aptamer, 400 nM; direction: higher = stronger binding; endpoint: mean fluorescence intensity; strand: GGTTGGTGTGGTTGG
Target: Prothrombin, mature alpha-thrombin (F2, Homo sapiens, UniProt P00734)
Notes: whole 15-mer aptamer, many near background
Modification = 2'F-ANA at 1 3 5 6 7 8 10 12 14; result = 45.1 a.u.
Modification = 2'F-ANA at 2 4 5 7 9 11 14; result = 43.2 a.u.
Modification = 2'F-ANA at 1 4 8 10 12 15; result = 62.7 a.u.
Modification = 2'F-ANA at 3 4 5 6 8 9 10 12 13; result = 50.4 a.u.
Modification = 2'F-ANA at 1 4 5 7 10 11 12 14 15; result = 46.2 a.u.
Modification = 2'F-ANA at 1 2 3 4 5 11 12 13 14 15; result = 51.7 a.u.
Modification = 2'F-ANA at 1 6 7 11 14 15; result = 67.8 a.u.
Modification = 2'F-ANA at 5 7 10 11; result = 53.3 a.u.
Modification = 2'F-ANA at 1 2 4 5 7 8 10 11 13 14; result = 81.3 a.u.
Modification = 2'F-ANA at 1 3 6 11 12 14 15; result = 91.9 a.u.
Modification = 2'F-ANA at 1 2 4 6 8 9 12; result = 252 a.u.
Modification = 2'F-ANA at 4 6 8 9 11 14 15; result = 72.3 a.u.
Modification = 2'F-ANA at 1 4 6 7 9 10 11; result = 50.3 a.u.
Modification = 2'F-ANA at 1 2 4 5 6 8 10 11 13 14; result = 55 a.u.
Modification = 2'F-ANA at 1 3 5 6 8 10 11 14; result = 50.2 a.u.
Modification = 2'F-ANA at 3 5 7 10 11 14 15; result = 63.6 a.u.

Block 2 — technique: protein binding microarray; form: double-stranded DNA, one strand shown; medium: in vitro; tested at: not given; reference: not given; direction: higher = stronger binding; endpoint: E-score
Target: Histone acetyltransferase KAT6A, winged helix 1, GST fusion (KAT6A, Homo sapiens, UniProt Q92794, residues 1-85)
Notes: 8-mer, flanks averaged, mean of 2 arrays, mostly near background
Residues (chain): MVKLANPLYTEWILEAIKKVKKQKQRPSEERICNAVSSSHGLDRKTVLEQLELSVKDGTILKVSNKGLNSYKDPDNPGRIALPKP
Strand = ATGATCAT; result = -0.0149
Strand = GAGGCCCC; result = -0.0413
Strand = ATGGTTCA; result = -0.135
Strand = AGTTATCC; result = -0.106
Strand = CGGCACAC; result = 0.206
Strand = ATACTTGA; result = -0.349
Strand = TCGGCCAA; result = 0.0621
Strand = ATCTGAAC; result = -0.186
Strand = TAAAATGA; result = -0.223
Strand = CTGAGTTC; result = -0.0644
Strand = GGGATTAC; result = 0.0287
Strand = ACTCACAG; result = -0.22
Strand = TCTACGCA; result = -0.0102
Strand = TGGACACA; result = -0.0495
Strand = CTGACTAC; result = -0.0287
Strand = GGCGTGGA; result = 0.237
Strand = CCCTCCTA; result = -0.113
Strand = ACAAACGT; result = -0.139
Strand = AAAGAGGA; result = -0.299
Strand = AGACGCAA; result = 0.135
Strand = CGCTCAGA; result = 0.0977
Strand = AGGCAGAA; result = -0.111
Strand = ATCTGTAC; result = -0.00911
Strand = ACCCGTCC; result = 0.249

Block 3 — technique: RNA Bind-n-Seq; form: RNA; medium: in vitro; tested at: 365 nM; reference: no-protein control; direction: higher = stronger binding; endpoint: RBNS enrichment (R)
Target: RNA binding protein fox-1 homolog 2, RRM domain, GST-SBP tag (RBFOX2, Homo sapiens, UniProt O43251-10, residues 100-194)
Notes: natural RNA segment, single round, ends assumed
Construct (chain): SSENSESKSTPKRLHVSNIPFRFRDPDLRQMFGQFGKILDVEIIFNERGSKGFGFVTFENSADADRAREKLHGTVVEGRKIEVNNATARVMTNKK
Strand = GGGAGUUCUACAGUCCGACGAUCAUCUCAGUAGACUAAACUCCAGCCCAUUUUUUAAAUGUGAGCAUGUGCUUUGCCAUCCAGUGUGGGUUUUGUUUUGGUUUAGGUUUUGUUUUUUGUUUUUCAAGAUAGGGUGGAAUUCUCGGGUGCCAA; result = 6.74
Strand = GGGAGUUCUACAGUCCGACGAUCAUGUGGCCUAGUGAAACAUGGAUCUUGUUUAAAAGGCAUCUGAUUUUAUGCAGACACGUGUCUGAAAAAUUAAAAUCCAUUGUCCAAACUUCCAUACAUUAGGUAACGUCUGGAAUUCUCGGGUGCCAA; result = 0.34
Strand = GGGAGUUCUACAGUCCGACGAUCAACAGACCAACUGCAUGUGUGUCUGUAGGUCUCAGUUUCCACAUUCAUACAGUGAGGGUGUUAAGUCAGGUAGCUGGAGACUUCCCAUCGCCUCUGACACUUUUGGAGGUUGGAAUUCUCGGGUGCCAA; result = 7.23
Strand = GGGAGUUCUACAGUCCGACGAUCGCCAAUUUCUAGGUAAUCUUACUGCUUUGUGGGUUUCUUUCCAUGUACAUCUACCUCUUCCAGCUGUUUUAAGUUUUCUCAAGUCUGUGCCUAUGAAAUCUCAUCCAACUUGGAAUUCUCGGGUGCCAA; result = 0.357
Strand = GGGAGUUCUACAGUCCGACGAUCUCAGAUUUAGAAAUGUUUUUAAGAGCUAUGUGAAAACAGACAAUAUUAGUUUAGGUCGGGAACUGAGAUAUUGUAAUCAAAUAGUUAACAUCAGGAAGUUAAUUUGGCUGUGGAAUUCUCGGGUGCCAA; result = 1.23
Strand = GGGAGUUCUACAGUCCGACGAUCUAGUUUAAAGCCUGCAGUAAAGGUACUCAGAUUUAUGGCUUUCAUGACUAACACUAAACACAUCAGCCAACAAUGUACCAAGAAAACAUGAUUUUAUGAAACAGAAUGUCUGGAAUUCUCGGGUGCCAA; result = 0.485
Strand = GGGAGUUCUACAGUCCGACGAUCAGAACAGACUUACUGAAGUUUAGGUAUAGUGAGCCACACUCCACUGCCAAGGUAGAGAACUGUGAGUGACUGUUGGUGUGGUGAAGGGUGUUGACCAUGCAGGGAAGUGGUGGAAUUCUCGGGUGCCAA; result = 0.895
Strand = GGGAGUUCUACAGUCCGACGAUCACCCACUAGGAUUUGUUUAGGUGCCCAUUGCAUCUUUUUGUGCUAUGGAGUUGUUUACAUUAAGCAUGACCGAACGAGAGACAAUACUAUUUCCCACAGGAGUCCAUUGGUGGAAUUCUCGGGUGCCAA; result = 3.54

Block 4 — target: CCND1, cyclin fold, Cln2 fusion (human); technique: yeast growth competition, sequencing; medium: yeast; notes: weak parent motif; reference: not given; direction: higher = stronger binding; endpoint: normalised enrichment score
Parent: CDC25A docking peptide (human); PPHRRRLLFACSP; partner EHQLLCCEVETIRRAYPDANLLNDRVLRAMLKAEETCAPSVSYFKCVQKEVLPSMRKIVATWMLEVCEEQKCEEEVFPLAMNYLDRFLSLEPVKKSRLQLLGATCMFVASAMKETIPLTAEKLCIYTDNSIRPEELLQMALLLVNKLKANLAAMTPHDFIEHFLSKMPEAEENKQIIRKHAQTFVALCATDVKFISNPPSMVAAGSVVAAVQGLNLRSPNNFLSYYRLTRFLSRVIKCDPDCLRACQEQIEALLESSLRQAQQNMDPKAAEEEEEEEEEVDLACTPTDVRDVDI
Variant = PVHRRRLLFACSP [P2V]; result = 0.00599
Variant = PPHRRRLLFACPP [S12P]; result = 0.0845
Variant = EPHRRRLLFACSP [P1E]; result = -0.034
Variant = PPVRRRLLFACSP [H3V]; result = 0.139
Variant = PPHRRRALFACSP [L7A]; result = 0.344
Variant = PPHRRRLLFACSN [P13N]; result = 0.411
Variant = PPHRRRLCFACSP [L8C]; result = -0.204
Variant = PPMRRRLLFACSP [H3M]; result = 0.296
Variant = PPHRRRILFACSP [L7I]; result = 0.43
Variant = PPHRRRNLFACSP [L7N]; result = -0.0519
Variant = PPHRRRLLTACSP [F9T]; result = 0.0328
Variant = PPHGRRLLFACSP [R4G]; result = 0.303
Variant = PPHRKRLLLACSP [R5K F9L]; result = 0.059
Variant = PPHRRRRLFACSP [L7R]; result = 0.0981
Variant = PPHRRRLLWACSP [F9W]; result = 0.328
Variant = PPHRRRLLFACDP [S12D]; result = -0.372
Variant = PPDRRRLLFACSP [H3D]; result = 0.5

Repeated from above (block 1):
Modification = 2'F-ANA at 1 2 3 4 5 11 12 13 14 15; result = 51.7 a.u.
Modification = 2'F-ANA at 1 6 7 11 14 15; result = 67.8 a.u.
Modification = 2'F-ANA at 5 7 10 11; result = 53.3 a.u.
Modification = 2'F-ANA at 1 2 4 5 7 8 10 11 13 14; result = 81.3 a.u.
Modification = 2'F-ANA at 1 3 6 11 12 14 15; result = 91.9 a.u.
Modification = 2'F-ANA at 1 2 4 6 8 9 12; result = 252 a.u.
Modification = 2'F-ANA at 4 6 8 9 11 14 15; result = 72.3 a.u.
Modification = 2'F-ANA at 1 4 6 7 9 10 11; result = 50.3 a.u.
